Measurements gathered from unrelated publications.
Each line is one published result; not all experiments were run side by side. Values joined by “and” are separate records of one study, mostly repeats; a detail may differ. ± gives the spread as reported.
Chain of UniProt Q9NZQ7 (whole entry, looked up): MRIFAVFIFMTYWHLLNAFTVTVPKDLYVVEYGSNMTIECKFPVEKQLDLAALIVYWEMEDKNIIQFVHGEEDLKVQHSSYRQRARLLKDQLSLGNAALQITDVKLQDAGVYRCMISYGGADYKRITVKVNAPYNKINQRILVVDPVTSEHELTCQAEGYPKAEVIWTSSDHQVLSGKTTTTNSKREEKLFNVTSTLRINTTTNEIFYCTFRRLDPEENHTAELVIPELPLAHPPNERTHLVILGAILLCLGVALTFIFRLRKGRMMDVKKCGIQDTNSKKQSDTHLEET
Chain of UniProt O43148 (whole entry, looked up): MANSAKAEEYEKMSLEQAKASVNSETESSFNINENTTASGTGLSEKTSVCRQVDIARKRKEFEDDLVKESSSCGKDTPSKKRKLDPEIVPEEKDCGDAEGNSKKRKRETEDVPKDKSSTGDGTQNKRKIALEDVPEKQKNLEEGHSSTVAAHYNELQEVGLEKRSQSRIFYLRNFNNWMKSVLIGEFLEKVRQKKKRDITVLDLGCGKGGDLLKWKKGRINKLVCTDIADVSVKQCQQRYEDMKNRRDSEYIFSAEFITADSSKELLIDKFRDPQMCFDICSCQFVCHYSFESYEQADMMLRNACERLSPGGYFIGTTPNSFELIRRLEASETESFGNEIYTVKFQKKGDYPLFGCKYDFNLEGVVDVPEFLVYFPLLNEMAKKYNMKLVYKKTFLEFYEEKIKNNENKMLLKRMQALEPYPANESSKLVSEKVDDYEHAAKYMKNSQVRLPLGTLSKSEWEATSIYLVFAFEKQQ
Chain of UniProt P00591 (whole entry, looked up): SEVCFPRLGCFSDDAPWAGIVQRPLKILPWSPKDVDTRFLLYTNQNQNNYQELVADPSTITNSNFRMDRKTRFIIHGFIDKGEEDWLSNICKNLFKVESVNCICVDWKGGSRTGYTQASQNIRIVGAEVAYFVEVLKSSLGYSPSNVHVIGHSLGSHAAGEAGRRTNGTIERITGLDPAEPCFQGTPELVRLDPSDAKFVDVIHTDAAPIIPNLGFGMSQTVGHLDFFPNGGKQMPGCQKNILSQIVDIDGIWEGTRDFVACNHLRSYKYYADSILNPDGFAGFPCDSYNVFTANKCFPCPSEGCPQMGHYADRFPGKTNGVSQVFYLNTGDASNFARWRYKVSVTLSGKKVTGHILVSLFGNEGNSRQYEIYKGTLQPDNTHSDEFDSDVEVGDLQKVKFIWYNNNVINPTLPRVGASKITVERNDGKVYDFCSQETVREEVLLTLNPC
Chain of UniProt P50554 (whole entry, looked up): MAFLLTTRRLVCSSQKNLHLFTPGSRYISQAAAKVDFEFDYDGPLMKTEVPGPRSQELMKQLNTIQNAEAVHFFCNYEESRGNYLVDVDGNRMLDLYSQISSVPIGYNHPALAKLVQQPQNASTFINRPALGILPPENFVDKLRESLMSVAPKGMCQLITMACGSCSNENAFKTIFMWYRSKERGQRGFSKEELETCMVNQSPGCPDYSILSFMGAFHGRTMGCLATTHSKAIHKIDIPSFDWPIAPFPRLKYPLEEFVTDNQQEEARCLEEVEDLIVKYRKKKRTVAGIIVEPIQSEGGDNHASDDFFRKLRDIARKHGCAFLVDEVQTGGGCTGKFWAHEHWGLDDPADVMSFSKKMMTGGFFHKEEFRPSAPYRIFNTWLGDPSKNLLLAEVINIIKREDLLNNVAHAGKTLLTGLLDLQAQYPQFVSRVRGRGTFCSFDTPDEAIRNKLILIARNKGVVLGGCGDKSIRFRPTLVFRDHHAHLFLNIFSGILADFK
Chain of UniProt Q04759 (whole entry, looked up): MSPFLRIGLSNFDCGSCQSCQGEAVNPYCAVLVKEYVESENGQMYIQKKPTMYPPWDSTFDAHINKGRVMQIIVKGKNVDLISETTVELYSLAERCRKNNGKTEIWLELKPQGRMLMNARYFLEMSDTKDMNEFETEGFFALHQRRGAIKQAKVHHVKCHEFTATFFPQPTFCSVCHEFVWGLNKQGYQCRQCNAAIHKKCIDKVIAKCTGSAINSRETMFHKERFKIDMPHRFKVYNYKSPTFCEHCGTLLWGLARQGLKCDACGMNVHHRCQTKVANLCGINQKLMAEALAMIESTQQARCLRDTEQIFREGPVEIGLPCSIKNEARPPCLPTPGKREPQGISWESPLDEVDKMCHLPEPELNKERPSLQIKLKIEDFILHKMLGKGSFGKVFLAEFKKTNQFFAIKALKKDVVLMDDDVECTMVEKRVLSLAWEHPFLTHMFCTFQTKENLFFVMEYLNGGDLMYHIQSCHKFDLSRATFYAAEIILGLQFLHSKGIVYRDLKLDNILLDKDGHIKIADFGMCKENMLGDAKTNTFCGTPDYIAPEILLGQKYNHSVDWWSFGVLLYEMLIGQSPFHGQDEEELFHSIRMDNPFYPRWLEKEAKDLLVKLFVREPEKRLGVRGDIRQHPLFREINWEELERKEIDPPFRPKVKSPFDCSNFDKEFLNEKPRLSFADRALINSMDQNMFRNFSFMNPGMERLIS
Chain of UniProt P08684 (whole entry, looked up): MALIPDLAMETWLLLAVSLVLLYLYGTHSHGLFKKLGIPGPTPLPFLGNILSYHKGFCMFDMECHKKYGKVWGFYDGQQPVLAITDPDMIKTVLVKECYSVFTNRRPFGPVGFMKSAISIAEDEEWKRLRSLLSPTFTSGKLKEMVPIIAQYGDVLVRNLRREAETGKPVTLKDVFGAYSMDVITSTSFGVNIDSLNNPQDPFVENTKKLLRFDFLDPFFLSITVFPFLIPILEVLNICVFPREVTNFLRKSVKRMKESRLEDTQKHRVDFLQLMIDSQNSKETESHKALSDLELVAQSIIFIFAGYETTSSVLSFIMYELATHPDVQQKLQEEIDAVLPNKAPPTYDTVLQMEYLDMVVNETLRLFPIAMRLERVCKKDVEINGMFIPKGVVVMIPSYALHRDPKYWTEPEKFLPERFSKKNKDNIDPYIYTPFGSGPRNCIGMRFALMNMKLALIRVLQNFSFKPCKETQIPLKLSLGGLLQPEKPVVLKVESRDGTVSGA
Chain of UniProt P14780 (whole entry, looked up): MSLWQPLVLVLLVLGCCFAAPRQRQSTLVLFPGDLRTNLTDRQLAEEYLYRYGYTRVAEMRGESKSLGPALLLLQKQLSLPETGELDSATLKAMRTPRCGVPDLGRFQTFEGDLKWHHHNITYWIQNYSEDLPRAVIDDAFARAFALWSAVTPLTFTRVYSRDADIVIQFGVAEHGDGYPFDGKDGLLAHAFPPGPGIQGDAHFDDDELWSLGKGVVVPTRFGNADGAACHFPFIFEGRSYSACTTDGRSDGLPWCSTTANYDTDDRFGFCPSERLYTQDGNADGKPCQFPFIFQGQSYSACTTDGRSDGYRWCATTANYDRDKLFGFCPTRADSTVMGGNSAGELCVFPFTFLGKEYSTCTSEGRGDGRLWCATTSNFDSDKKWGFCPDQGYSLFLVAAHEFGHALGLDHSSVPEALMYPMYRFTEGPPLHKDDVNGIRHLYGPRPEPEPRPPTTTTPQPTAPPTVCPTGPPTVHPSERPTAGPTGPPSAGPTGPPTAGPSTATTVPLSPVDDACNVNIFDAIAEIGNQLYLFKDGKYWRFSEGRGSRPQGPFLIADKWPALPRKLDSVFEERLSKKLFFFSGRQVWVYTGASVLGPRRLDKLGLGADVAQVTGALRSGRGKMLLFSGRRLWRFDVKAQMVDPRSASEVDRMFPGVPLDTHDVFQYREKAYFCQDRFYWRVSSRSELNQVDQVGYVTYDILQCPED
Chain of UniProt Q13443 (whole entry, looked up): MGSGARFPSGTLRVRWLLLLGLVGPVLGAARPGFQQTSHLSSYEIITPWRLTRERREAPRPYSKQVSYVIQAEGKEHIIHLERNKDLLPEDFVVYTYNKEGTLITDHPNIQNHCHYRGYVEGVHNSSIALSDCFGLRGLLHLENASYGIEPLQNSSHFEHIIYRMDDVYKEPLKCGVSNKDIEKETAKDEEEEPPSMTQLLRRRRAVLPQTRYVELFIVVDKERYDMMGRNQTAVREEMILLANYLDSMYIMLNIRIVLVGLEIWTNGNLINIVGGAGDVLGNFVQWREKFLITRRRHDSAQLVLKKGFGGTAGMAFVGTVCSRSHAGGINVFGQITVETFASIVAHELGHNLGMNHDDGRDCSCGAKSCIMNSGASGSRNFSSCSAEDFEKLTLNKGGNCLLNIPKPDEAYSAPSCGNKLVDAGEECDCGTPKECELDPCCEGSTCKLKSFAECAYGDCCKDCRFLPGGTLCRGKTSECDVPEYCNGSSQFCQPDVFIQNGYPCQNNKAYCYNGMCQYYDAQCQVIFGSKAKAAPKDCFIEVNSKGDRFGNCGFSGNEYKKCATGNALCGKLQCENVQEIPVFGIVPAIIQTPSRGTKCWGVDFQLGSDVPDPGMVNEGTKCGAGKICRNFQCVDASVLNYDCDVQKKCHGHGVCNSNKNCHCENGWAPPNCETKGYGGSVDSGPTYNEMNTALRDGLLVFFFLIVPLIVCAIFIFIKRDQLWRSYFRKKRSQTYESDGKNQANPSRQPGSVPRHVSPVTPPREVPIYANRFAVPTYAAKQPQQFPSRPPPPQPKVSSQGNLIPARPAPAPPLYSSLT
Chain of UniProt Q9Y572 (whole entry, looked up): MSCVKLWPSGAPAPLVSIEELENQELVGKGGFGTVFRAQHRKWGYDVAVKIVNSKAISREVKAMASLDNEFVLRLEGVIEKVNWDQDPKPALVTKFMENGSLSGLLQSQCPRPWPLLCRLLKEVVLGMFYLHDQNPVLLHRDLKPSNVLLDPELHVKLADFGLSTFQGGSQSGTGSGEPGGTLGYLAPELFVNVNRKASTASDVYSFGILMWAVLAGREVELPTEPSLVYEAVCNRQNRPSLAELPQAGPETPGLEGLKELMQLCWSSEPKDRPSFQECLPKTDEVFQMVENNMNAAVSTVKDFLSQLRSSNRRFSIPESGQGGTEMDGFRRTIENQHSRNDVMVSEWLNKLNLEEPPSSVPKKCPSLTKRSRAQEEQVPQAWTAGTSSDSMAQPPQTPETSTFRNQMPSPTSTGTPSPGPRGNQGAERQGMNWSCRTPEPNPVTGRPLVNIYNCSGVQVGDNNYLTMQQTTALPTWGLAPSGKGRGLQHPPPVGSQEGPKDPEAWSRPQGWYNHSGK

For `CC[C@H](C)[C@H](NC(=O)CNCCOC)C(=O)N[C@@H](CO)C(=O)N[C@@H](CCC(N)=O)C(=O)N[C@H](C(=O)N[C@@H](CC(N)=O)C(=O)N[C@@H](CCC(=O)O)C(=O)N[C@@H](CCCCN)C(=O)N[C@H](C(=O)N[C@@H](CC(N)=O)C(=O)N[C@@H](CCC(N)=O)C(=O)N[C@@H](CO)C(=O)N[C@@H](CC(C)C)C(=O)N[C@@H](C)C(=O)N[C@@H](Cc1ccccc1)C(=O)N[C@H](C(=O)N[C@@H](CCCNC(=N)N)C(=O)N[C@@H](CCCCN)C(=O)N[C@@H](CO)C(=O)N[C@@H](CC(=O)O)C(=O)N[C@@H](CCC(=O)O)C(=O)O)[C@@H](C)CC)[C@@H](C)CC)C(C)C`, the IC50 was greater than 200 µM (hRSV fusion protein 5-helix bundle; binding, fluorescence polarization; together with: Fl-C35 tracer 5 nM).
`NC(=O)C[C@H](NC(=O)[C@H](CC(N)=O)NC(=O)[C@H](CCC(=O)O)NC(=O)[C@@H](N)CS)C(=O)O` has an IC50 of 144 µM (PPO3 (Agaricus bisporus, UniProt C7FF04); enzyme activity, inhibitor).
With `COC1CC(=O)N(C)C=CCCCC(=O)N(C)C(C(C)C)C(=O)N(C)C(CC(C)C)C(=O)OC(C(C)C)CC(C)C1` (centres unmarked) the IC50 was 4.6 µM (TACR2 (Homo sapiens, UniProt P21452); calcium signal, antagonist).
With `CCC(C)SSc1ncc[nH]1` (centres unmarked) the IC50 was greater than 60 µM (Genome polyprotein, 2A protease (Human enterovirus 71, UniProt B9VUU3); protease activity, inhibitor, FRET; Enterovirus A71; DTT 4 mM).
`CCn1c(-c2ccc(-c3ccc(F)cc3)cc2)c(-c2ccc(-c3ccc(F)cc3)cc2)n(CC)c1=[Se+][Au-][P+](CC)(CC)CC.Cl` has an IC50 of 1.2 µM (thioredoxin reductase (Acinetobacter baumannii, UniProt A0A0G4QN87); thioredoxin reductase activity; carbapenem-resistant; 2 h).
With `NC(=O)c1cccc(CCN(CC[C@H](N)C(=O)O)C[C@H]2O[C@@H](n3cnc4c(N)ncnc43)[C@H](O)[C@@H]2O)c1` the IC50 was greater than 50 µM (EHMT2 (Homo sapiens, UniProt Q96KQ7); enzyme activity, inhibitor, radiometric).
For `O=c1c(O)c(-c2ccc(O)c(O)c2)oc2cc(O)cc(O)c12`, the IC50 was 0.4 µM (RNMT (Homo sapiens, UniProt O43148); enzyme activity, inhibitor).
For `C[C@@H](NC(=O)[C@@H](N)Cc1ccc(O)cc1)C(=O)NCC(=O)N[C@@H](Cc1ccc(F)cc1)C(=O)Nc1ccccc1NC(=O)[C@H](Cc1ccc(F)cc1)NC(=O)CNC(=O)[C@@H](C)NC(=O)[C@@H](N)Cc1ccc(O)cc1`, the IC50 was 0.00066 ± 0.00017 µM (delta opioid receptor, mouse; vas deferens contraction, agonist; mouse vas deferens).
`COc1ccc(CC[C@H]2OC(=O)[C@@H]3CCCCN3C(=O)C(=O)C(C)(C)COC(=O)/C=C\CCN(C)C(=O)[C@H](CC(C)C)N(C)C(=O)[C@H]3CCCN3C(=O)[C@H](Cc3ccccc3)N(C)C(=O)[C@@H](c3ccccc3)NC(=O)CCC(=O)Nc3cccc2c3)cc1OC` gave an IC50 of 0.469 µM (FKBP1A/SLC29A1 (Homo sapiens, UniProt P62942+Q99808); thymidine uptake, inhibitor; PK-15 expressing hENT1; 30 min, together with: [3H]-thymidine).
`Cc1cccc(-c2nc(Nc3ccncn3)c3c(C)csc3n2)n1` gave an IC50 of 32 µM (Cytochrome P450 3A4 (CYP3A4, Homo sapiens, UniProt P08684); enzyme activity, inhibitor; together with: VR substrate).
`Cn1cc(C(=O)Nc2ccccn2)c2ccccc21` gave an IC50 of 2.32 µM (Genome polyprotein, 3C protease (rhinovirus B14, UniProt P03303); 3C protease activity, SAMDI-MS; human rhinovirus).
For `CC(C)C[C@H](NC(=O)/C=C/c1ccc(OP(=O)(O)O)cc1)C(=O)N1CCC[C@H]1C(=O)N[C@@H](CCC(N)=O)[C@H](C)OCc1ccccc1`, the IC50 was 0.272 ± 0.007 µM (Signal transducer and activator of transcription 3, SH2 domain (STAT3, Homo sapiens, UniProt P40763); inhibitor, fluorescence polarization).
`O=C(CCCCCCC(=O)Nc1cccc(N=Nc2ccccc2)c1)NO` gave an IC50 of 0.012 ± 0.002 µM (HDAC2 (Homo sapiens, UniProt Q92769); enzyme activity, inhibitor; trans isomer).
For `Nc1ccn(CC2COP(=O)(OCCCCCCNC(=O)CCCCC3SCC4NC(=O)NC43)CO2)c(=O)n1` (mixture of isomers), the IC50 was 11.2 ± 1.48 µM (Sodium-dependent multivitamin transporter (Canis lupus familiaris, UniProt A0A8I3MY61); biotin uptake; MDCK-MDR1; together with: [3H]-biotin).
For `CCCCCCCCCCCCCCCc1ccc(C(O)P(=O)(O)O)cc1` (racemic), the IC50 was 0.73 µM (Autotaxin (ENPP2, Homo sapiens, UniProt Q13822); enzyme activity, inhibitor; together with: FS-3 1 µM).
`NN[C@@H](CCCC[C@H](NN)C(=O)O)C(=O)O` has an IC50 of roughly 572 µM (4-aminobutyrate aminotransferase, mitochondrial (Rattus norvegicus, UniProt P50554); enzyme activity, inhibitor; rat brain homogenate).
`Cn1c(C(=O)NCCN2CCC3(CC2)C(=O)NCN3Cc2cccnc2)cc2ccccc21` has an IC50 of greater than 20 µM (Phospholipase D1 (Homo sapiens, UniProt Q13393); enzyme activity, inhibitor).
`CN1C(=O)C2(Cc3ccc(CC45SSC(CO)(C(=O)N4C)N(C)C5=O)cc3)SSC1(CO)C(=O)N2C` (racemic) has an IC50 of 1.5 ± 0.2 µM (Histone acetyltransferase p300, CH1 with HIF-1α (EP300, Homo sapiens, UniProt Q09472); binding, fluorescence polarization competition; DTT 1 mM, together with: HIF-1α C-TAD probe).
`CCOC(=O)C(C)(COP(=O)(OC)OCCCCCCNC(=O)c1cc2ccccc2oc1=O)C(=O)CSC(C)=O` (centres unmarked) has an IC50 of 4.87 ± 0.03 µM (Retinal rod rhodopsin-sensitive cGMP 3',5'-cyclic phosphodiesterase subunit delta, with farnesylated K-Ras (PDE6D, Homo sapiens, UniProt O43924)).
With `O=C(C[P+]([Au-][Cl])(c1ccccc1)c1ccccc1)[O][Ti+2][O]C(=O)C[P+]([Au-][Cl])(c1ccccc1)c1ccccc1.c1cc[cH-]c1.c1cc[cH-]c1` the IC50 was 11.6 µM (PRKCQ (Homo sapiens, UniProt Q04759); enzyme activity, inhibitor, radiometric).
`C[C@@]12CC[C@@H]3c4cc(Cl)c(O)c(Cl)c4CC[C@H]3[C@@H]1CCC2=O` has an IC50 of 4.6 µM (AKR1C2 (Homo sapiens, UniProt P52895); enzyme activity, inhibitor, absorbance; pH 9).
The IC50 of `CC(=O)N[C@@H](CCCNC(=O)c1ccc(-c2cc(C(F)(F)F)ccn2)cc1)C(=O)N[C@@H](CCCNC(=O)c1ccc(-c2cc(C(F)(F)F)ccn2)cc1)C(N)=O` is reported as 31 µM (DUSP14 (Homo sapiens, UniProt O95147); enzyme activity, inhibitor).
For `CC(=O)N[C@@H](CCCNC(=N)N)C(=O)N[C@@H](CO)C(=O)N[C@@H](CCC(=O)O)C(=O)N[C@@H]1C(=O)N[C@@H](CC(C)C)C(=O)N[C@H]2CCCCNC(=O)CC[C@@H](C(=O)N[C@@H](Cc3ccccc3)C(=O)O)NC(=O)[C@@H]3CCC(=O)OC[C@H](NC(=O)[C@@H]4CCCN4C(=O)[C@H](Cc4ccc(O)cc4)NC2=O)C(=O)N[C@@H](CC(=O)O[C@@H]1C)C(=O)N[C@@H](Cc1c[nH]c2ccccc12)C(=O)N3`, the IC50 was 7.3 µM (Chymotrypsinogen A (Bos taurus, UniProt P00766); enzyme activity, inhibitor, fluorescence).
`CC(C)(C)c1ccc(C(=O)Nc2cc(Cl)c(Br)cc2C(=O)O)cc1` gave an IC50 of 0.98 ± 0.07 µM (Phosphotransferase (Trypanosoma brucei, UniProt Q38C42); enzyme activity, inhibitor).
For `CC(C)c1ccc(C(=O)Nc2ccc(CN3CCN(C)CC3)c(C(F)(F)F)c2)cc1C#Cc1cnc2cccnn12`, the IC50 was 0.46 µM (RIPK3 (Homo sapiens, UniProt Q9Y572); enzyme activity, inhibitor, ADP detection).
`C[C@H]1CN(c2nnnc3c2sc2nc(N4CCOCC4)c4c(c23)CCCC4)CCN1` gave an IC50 of greater than 100 µM (Beta-glucuronidase (uidA, Escherichia coli, UniProt P05804); enzyme activity, inhibitor).
`O=C(O)CNCP(=O)(O)O` has an IC50 of greater than 200 µM (IMP-28 metallo-beta-lactamase; enzyme activity, inhibitor, FC5 fluorescent substrate; 60 pM enzyme, 1 µM ZnSO4).
`CSCC[C@H](NC(=O)[C@H](CC(C)C)NC(=O)[C@H](Cc1cnc[nH]1)NC(=O)CNC(=O)[C@@H](NC(=O)[C@H](C)NC(=O)[C@H](Cc1c[nH]c2ccccc12)NC(=O)[C@H](CCC(N)=O)NC(=O)[C@H](N)Cc1ccccc1)C(C)C)C(N)=O` gave an IC50 of 0.00017 µM (GRPR (Homo sapiens, UniProt P30550); ligand displacement in cells, radioligand).
For `CC[C@H](C)[C@@H]1NC(=O)[C@H](Cc2ccccc2)NC(=O)[C@H](C)NC(=O)[C@@H](NC(=O)[C@@H](NC(=O)[C@H](CO)NC(=O)[C@@H](N)Cc2ccc(O)cc2)[C@@H](C)O)CSC(=O)[C@H](CCSC)NC1=O`, the IC50 was 8.27e-05 µM (Accessory gene regulator protein C (Staphylococcus aureus, UniProt Q309Z2)).
`CC(C)C[C@@H]1NC(=O)[C@H](CCCNC(=N)N)NC(=O)[C@H](CCCCN)NC(=O)[C@H](CC(=O)O)NC(=O)[C@H](CCCCN)NC(=O)[C@@H](CO)NC1=O` has an IC50 of greater than 10 µM (Disintegrin and metalloproteinase domain-containing protein 9 (Homo sapiens, UniProt Q13443); enzyme activity, inhibitor, fluorescence).
With `CC(C)[C@H]1NC(=O)C[C@H]2/C=C/CCSSC[C@@H](NC1=O)C(=O)N[C@H](C)C(=O)NCC(=O)O2` the IC50 was greater than 100 µM (Phosphatidylinositol 4,5-bisphosphate 3-kinase catalytic subunit alpha isoform, with p85 (PIK3CA, Homo sapiens, UniProt P42336); enzyme activity, inhibitor, mobility shift).
With `CC1C(=NOCc2cc(-c3ccc(Cl)cc3)no2)C(C)C(c2ccc(Br)cc2)OC1c1ccc(Br)cc1` (centres unmarked) the IC50 was 5.87 µM (gyrB (Escherichia coli, UniProt P0AES6); ATPase activity, inhibitor).
The IC50 of `OC(COCc1ccccc1Cl)CN1CC=C(c2c[nH]c3ccccc23)CC1` (racemic) is reported as greater than 10 µM (SLC6A2 (Homo sapiens, UniProt P23975); transporter uptake, inhibitor, radiometric).
For `COC(=O)C=CCCC(NC(=O)c1ccncc1C(=O)O)C(=O)NC(C(=O)N1CC(=O)CC1C(=O)NC(C(=O)NC(C(N)=O)C1CCCCC1)C1CCCCC1)C(C)(C)C` (centres unmarked), the IC50 was 0.017 ± 0.0006 µM (Coagulation factor XIII A chain (Rat, UniProt O08619); transamidation activity, inhibitor; rat enzyme, together with: dansylcadaverine into N,N-dimethylcasein).
`COc1cc(O)c2c(=O)oc3cc(O)cc(C)c3c2c1` has an IC50 of 70.6 µM (PNLIP (Sus scrofa, UniProt P00591); enzyme activity, inhibitor, fluorescence).
With `CCCC[C@H]1C(=O)N(C)[C@@H](CCCC)C(=O)N[C@@H](CCCNC(=O)c2ccc(F)nc2)C(=O)N[C@H](C(=O)NCC(N)=O)CSCC(=O)N[C@@H](Cc2ccc(O)cc2)C(=O)N(C)[C@@H](C)C(=O)N[C@@H](CC(N)=O)C(=O)N2CCC[C@H]2C(=O)N[C@@H](Cc2c[nH]cn2)C(=O)N[C@@H](CC(C)C)C(=O)N2C[C@H](O)C[C@H]2C(=O)N[C@@H](Cc2c[nH]c3ccccc23)C(=O)N[C@@H](CO)C(=O)N[C@@H](Cc2cn(C)c3ccccc23)C(=O)N1C` the IC50 was 0.026 to 0.032 µM and 0.0317 µM (Programmed cell death 1 ligand 1, with PD-1 (CD274, Homo sapiens, UniProt Q9NZQ7); PD-1 binding, inhibitor, FRET; together with: PD-1-Ig 20 nM).
`CC(C)[C@H](NC(=O)c1ccc(CNc2nc3c(c(=O)[nH]2)CCC3)cc1)C(=O)NC1CNC1` gave an IC50 of greater than 5 µM (MMP9 (Homo sapiens, UniProt P14780); enzyme activity, inhibitor).
`COc1cc(-c2nn(C3CCC(N4CCN(C)CC4)CC3)c3ncnc(N)c23)ccc1NC(=O)OCc1ccccc1` (centres unmarked) gave an IC50 of greater than 20 µM (PAK3 (Homo sapiens, UniProt O75914); kinase activity, inhibitor; together with: ATP 100 µM, MBP substrate).

Excerpt of the above:
With `O=C(C[P+]([Au-][Cl])(c1ccccc1)c1ccccc1)[O][Ti+2][O]C(=O)C[P+]([Au-][Cl])(c1ccccc1)c1ccccc1.c1cc[cH-]c1.c1cc[cH-]c1` the IC50 was 11.6 µM (PRKCQ (Homo sapiens, UniProt Q04759); enzyme activity, inhibitor, radiometric).
For `CC[C@H](C)[C@H](NC(=O)CNCCOC)C(=O)N[C@@H](CO)C(=O)N[C@@H](CCC(N)=O)C(=O)N[C@H](C(=O)N[C@@H](CC(N)=O)C(=O)N[C@@H](CCC(=O)O)C(=O)N[C@@H](CCCCN)C(=O)N[C@H](C(=O)N[C@@H](CC(N)=O)C(=O)N[C@@H](CCC(N)=O)C(=O)N[C@@H](CO)C(=O)N[C@@H](CC(C)C)C(=O)N[C@@H](C)C(=O)N[C@@H](Cc1ccccc1)C(=O)N[C@H](C(=O)N[C@@H](CCCNC(=N)N)C(=O)N[C@@H](CCCCN)C(=O)N[C@@H](CO)C(=O)N[C@@H](CC(=O)O)C(=O)N[C@@H](CCC(=O)O)C(=O)O)[C@@H](C)CC)[C@@H](C)CC)C(C)C`, the IC50 was greater than 200 µM (hRSV fusion protein 5-helix bundle; binding, fluorescence polarization; together with: Fl-C35 tracer 5 nM).
`C[C@@]12CC[C@@H]3c4cc(Cl)c(O)c(Cl)c4CC[C@H]3[C@@H]1CCC2=O` has an IC50 of 4.6 µM (AKR1C2 (Homo sapiens, UniProt P52895); enzyme activity, inhibitor, absorbance; pH 9).
With `CCC(C)SSc1ncc[nH]1` (centres unmarked) the IC50 was greater than 60 µM (Genome polyprotein, 2A protease (Human enterovirus 71, UniProt B9VUU3); protease activity, inhibitor, FRET; Enterovirus A71; DTT 4 mM).
